Measured values collected from several papers.
Numbered parts are unrelated; each lists some results of a single study. Substitutions count along the parent as printed.

Study 1
Target: ABI1, truncated, D143A, DHFR fusion (Arabidopsis thaliana)
Method: DHFR PCA, deep sequencing
Matrix: yeast
Setting: methotrexate growth selection, single substitutions
Added: (+)-ABA 4.8 µM
Relative to: wild-type fitted maximum
Reading: higher = stronger binding
Starting sequence: PYL1, truncated, DHFR fusion (Arabidopsis thaliana); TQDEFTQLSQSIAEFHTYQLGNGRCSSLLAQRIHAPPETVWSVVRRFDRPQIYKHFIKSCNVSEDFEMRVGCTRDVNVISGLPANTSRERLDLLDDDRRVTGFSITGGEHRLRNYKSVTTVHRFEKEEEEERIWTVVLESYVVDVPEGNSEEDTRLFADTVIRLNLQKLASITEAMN; partner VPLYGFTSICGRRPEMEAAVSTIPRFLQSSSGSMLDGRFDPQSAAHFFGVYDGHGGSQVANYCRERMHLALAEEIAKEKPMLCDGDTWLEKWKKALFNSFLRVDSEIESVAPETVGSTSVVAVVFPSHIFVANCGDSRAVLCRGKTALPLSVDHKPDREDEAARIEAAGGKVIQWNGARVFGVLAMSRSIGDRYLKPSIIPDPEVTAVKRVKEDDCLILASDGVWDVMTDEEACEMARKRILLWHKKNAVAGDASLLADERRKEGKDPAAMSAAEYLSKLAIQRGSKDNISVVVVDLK
Variant	relative binding score [%]
L91N	3.16
N61P	1.95
Q19N	75.1
V145N	10
L166V	-0.604
R155V	59.8
T39D	61.1
E129W	54.8
K58E	47.8
R113M	65.6
R99M	94.9
G108E	-12.7
S26I	9.88
G71M	0.505
R24I	51.3
P50M	-17.7
E127D	78.4
F124D	65.4
R123S	83.4
A170E	18.5
G107C	6.73
R98E	29.7
T86R	57.1

Study 2
Target: Histone acetyltransferase KAT6A, winged helix 1, GST fusion (KAT6A, Homo sapiens, UniProt Q92794, residues 1-85)
Method: protein binding microarray
Molecule type: double-stranded DNA, one strand shown
Matrix: in vitro
Concentration: not given
Setting: 8-mer, flanks averaged, mean of 2 arrays, mostly near background
Relative to: not given
Reading: higher = stronger binding
Residues (chain): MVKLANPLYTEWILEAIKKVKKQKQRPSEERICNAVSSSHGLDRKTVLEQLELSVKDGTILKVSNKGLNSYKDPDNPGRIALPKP
Oligonucleotide	E-score
ACTTTACG	-0.0223
CGTGTGAG	0.00521
ATAGGGGC	-0.0006
AGCGTAAT	0.0546
ACCTCCGT	0.0359
GGTTATCA	-0.123
GACTATAA	-0.0899
CTGGCGAA	-0.13
ATCAGACG	0.0208
CACGTATC	-0.132
CAAAAGCA	-0.0815
CCACGATC	-0.152
GAAGGTTA	0.0653
CCTTCTGC	-0.0977
GGCGATAC	0.17
ACTGCGGG	0.146
ATACCTAT	-0.104
AGGTGAGA	-0.139
GACGGCAA	0.355

Study 3
Target: RING finger protein unkempt homolog, zinc fingers 1-6, GST-SBP tag (UNK, Homo sapiens, UniProt Q9C0B0, residues 30-357)
UniProt Q9C0B0, sequence (30-357, looked up): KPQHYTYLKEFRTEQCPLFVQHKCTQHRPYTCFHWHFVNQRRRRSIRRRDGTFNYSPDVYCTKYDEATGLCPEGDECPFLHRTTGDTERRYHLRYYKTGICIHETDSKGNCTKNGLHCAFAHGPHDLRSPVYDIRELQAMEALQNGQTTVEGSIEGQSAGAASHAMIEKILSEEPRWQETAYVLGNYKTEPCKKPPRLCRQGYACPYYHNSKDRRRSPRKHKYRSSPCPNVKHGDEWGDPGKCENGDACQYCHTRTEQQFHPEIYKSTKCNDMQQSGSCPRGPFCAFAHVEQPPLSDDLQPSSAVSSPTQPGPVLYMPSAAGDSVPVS
Method: RNA Bind-n-Seq
Molecule type: RNA
Matrix: in vitro
Concentration: not given
Setting: RNA with constant flanks, ends assumed
Relative to: input RNA pool
Reading: higher = stronger binding
Oligonucleotide	bound/input enrichment
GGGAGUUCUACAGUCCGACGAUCUCUGCUGCGUGGACAAGGACACUCUCCGAUGCCACUUCCUCAGGCCCUUUUCCAAGGAAGACCCGAUGGAGUUGGCUUUUUAUGCAAAGGUCGUUGGAUUUCAGGGUGAGCACUGAGAGCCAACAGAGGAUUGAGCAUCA	0.136 ratio
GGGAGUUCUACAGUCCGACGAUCUAAAUUGUUGGAGUUCUUUUAAGAAGAAUAUAAAUUGAUUAUUUUUUUUAUUUAAAGGGACCGUUGAUUCCUGGGGUGUUUUGAAAUUAAGUUGGAAUUAAGUUGCUUAAGCAUAUUUAUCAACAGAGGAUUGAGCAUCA	0.458 ratio
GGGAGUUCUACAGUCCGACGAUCCUUUGUUUCUUGGGGCAUUUUUCCUUUUUUUUUUUUUUUUGUUUUUUUUUUACCCCUCCUCCGCUUUAUGCGCUCAGAAACCAAAUUAAACCCCCCCCCCAUGUAACAGGGGGGCAGUGACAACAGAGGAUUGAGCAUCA	6.74 ratio
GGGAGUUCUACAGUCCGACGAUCUUUUUCUUUUUUUUUUUUUAAUUUUUCCCCCCAACCAUCGUGAUUUGUCUUUUCAUGCAGAUCCGUCCGAAUUCACUGCCAGGUUUCUUCUGCCCACCAAAAUGAUCCAGUCUGGAAUAACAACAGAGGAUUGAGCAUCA	8.01 ratio
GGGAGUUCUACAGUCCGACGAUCGGACAUCUCCAGUCAGAAAGUGGAGCUGUUCCAAAAAGAAAAGACCCCUUAACACACACCCGUAAUUCACUGCCUCGUUCAAAAACAGUUAUGAAAACUGGAUCUGCAGGCCUUUCAGGCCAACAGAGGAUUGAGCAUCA	0.238 ratio
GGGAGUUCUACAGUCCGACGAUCGAGGGAAGAGAUGAAUCUUCAAGGAUACCUACCUCUGAUACAUCAUCUAGAUCUCAUAUUUUCCGAAGAGAAUCAAAUGAAGUGGUUCACCUUGAAGCACAGAAUGAUCCUCUUGGAGCUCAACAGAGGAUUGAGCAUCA	0.216 ratio
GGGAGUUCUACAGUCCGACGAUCGUGCUAUUAAUAUUAGCUGAAGUAGCAAGCUAAAAGUAGACACUUCAUUUAUCUUUUCCGCCGCAUCCUCUCAACUGUUCCAGAUCCAGUUUUGCAUUUGGUUGUCUGUCUCAGUAGUCUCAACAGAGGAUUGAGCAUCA	0.73 ratio
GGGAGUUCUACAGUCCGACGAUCUUCUAAAGGGCUCAAAACAAGGCACAGGCCAGCUGACUCGUGACUUGGUGUCUGUAACUGCUCCGUGGGUGCUCUGAUUUGGUGCGUGUUAUGAAGGGAGGGGGUCCCUGUACCCCUAUCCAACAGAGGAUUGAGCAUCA	0.171 ratio
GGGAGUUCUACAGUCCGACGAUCCAUCGACAUUGGUAAUGUGGCCAGCUCUCCUUGGUCCUGUCCUCAGCCGAUGCUUUUUCAACCGGAUUUUUAUGCUUUGUGUACCUCAACCAAGUAUGAAGAGCUGUACUGGUUUUAUAGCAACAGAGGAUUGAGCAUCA	0.153 ratio
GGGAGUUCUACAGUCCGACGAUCUCUGCAAUAGUUGGAUUUAUCUACGGGUACGUGGCUGAACAGUUCGGGUGGACUGUCUAUACCGUUAUGGCCGGAUUUGCUUUUUCAUGUUUGCUGACACUUCCUCCAUGGCCCAUCUAUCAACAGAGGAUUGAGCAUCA	0.247 ratio
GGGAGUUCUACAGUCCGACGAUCAUGGAGAAGGAUUCUCUGCCCCGCUUUGUGCGCUCUGAAUUUUAUAAGGAGCUAAUCAAGCCGUCAUCUGGUCAGGCUUCCAAAAGUUGCCCUGUGAGUUGAGUUACAUCCUUUGUAGCACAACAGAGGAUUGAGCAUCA	0.128 ratio

Study 4
Target: RNA binding protein fox-1 homolog 2, RRM domain, GST-SBP tag (RBFOX2, Homo sapiens, UniProt O43251-10, residues 100-194)
Method: RNA Bind-n-Seq
Molecule type: RNA
Matrix: in vitro
Concentration: 365 nM
Setting: natural RNA segment, single round, ends assumed
Relative to: no-protein control
Reading: higher = stronger binding
Target sequence (chain): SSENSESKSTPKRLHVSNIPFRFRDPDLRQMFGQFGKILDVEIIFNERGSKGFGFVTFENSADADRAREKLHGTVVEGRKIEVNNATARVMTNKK
Oligonucleotide	RBNS enrichment (R)
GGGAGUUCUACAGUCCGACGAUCUGGCUCCUAGCUGCCCAUAGGCUCCUAGUGCAUGAGGAAUUCUGAGGAGAGGACAAGUGGGGACAUUUCCUCGGCAUGGCCUCCAAGGCCUGCAUGGCUACACACCUGGCUGGAAUUCUCGGGUGCCAA	11.9
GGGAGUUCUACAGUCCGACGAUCCCAACAAAAAAAUAAAUAAAAAUAAAAGCAAAGAAAAGGCAGUGGCGCAUAUAUUCUGUGGUCCAGGCUGUUUCUAGUCUAUUGAUGAUGGAUGCUUAUAUUAGUUUUUUUGGAAUUCUCGGGUGCCAA	0.391
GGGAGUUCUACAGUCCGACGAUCGAAGACAAUCUUUCAACAUCCCUACAUUCCUGAUAUGAAGCAGGAAUUUGCACAUGGUGUAGAGAGCUCCCUCUCCUGCCUCUCUGCCCAGCCUUGUUACCUCACUCCUGUGGAAUUCUCGGGUGCCAA	0.948
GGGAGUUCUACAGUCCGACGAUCGGCUGGGCCUGUCCUGCCGUCAUGGCCCCCUGCUUCCUGCUCCUUGGAGCUGGCUCCCGGACCUUGCCCACCAUCCAUGCAGUGGCUCCCAGGGCAGAGCCUCUCCUUGUUGGAAUUCUCGGGUGCCAA	0.337
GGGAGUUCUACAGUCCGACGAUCGUGGAGGUAAUGCAUCUGAGCCAUCUGGGAAAGAUGUGGACGAUGUCCAGGAGAAACCUAAAGACAUAAUACAGUUCACUGCCGAGAAGCUCUCUGUGGGGGAAGUGUCAUGGAAUUCUCGGGUGCCAA	0.607
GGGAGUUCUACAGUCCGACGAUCAUAAAGAUUUUAAAUAUUUCUUGGUUUACUUUUGUAAUUAUAUACACAACAAAUGUAUUAAUAACUACCUUGUUAAACACCUUUUAAUAGCACAAGGUUUUUAUAUUUGCUGGAAUUCUCGGGUGCCAA	0.677
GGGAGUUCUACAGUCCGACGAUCCCUUUGUGGGUGACUUCAGGCUUCCCGCUUUCGUGGUGCUCUUCCUGGGAUUCGUUUUUUUAUUACCCUCCCUCCCUACUUGUAGGCCUCAGCUAUGGCUUGACGUAAUCUGGAAUUCUCGGGUGCCAA	0.348
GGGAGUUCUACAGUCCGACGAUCAAAUAUAAGCGAACAGAAAGCCUUGGCCUGCGAGAGGCCACUGCCUCUCGGCCCAGCAAGAGAACAAUUCUUUCCGGGAUUGGCUGGCUCAGGUUGGGCGGGGCCGGUUCUGGAAUUCUCGGGUGCCAA	0.245
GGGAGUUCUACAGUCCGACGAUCUGUAUAGACAUUAUUUUCGUCGUAUGUUUCUAUAUUUUGAAACAAAGGUAUGUAACUUCUUCAUUUGAAGGAUAAGCUGGUUUGUGUUAAGCAGUAUAGUAUUGGUUGGGUGGAAUUCUCGGGUGCCAA	0.794
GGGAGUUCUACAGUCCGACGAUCUUUCAGAAAACAGGUCUCUCCUUUUGUAAAUCUGGAAUGAUGUAAGAAAAUGCUUUUGGUUACUGAUACAUUUUUCCCUAAUUGACCUUUUCUAUUACUAAAUCUGAAAUUGGAAUUCUCGGGUGCCAA	0.47
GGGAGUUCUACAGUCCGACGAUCUGUUUUUUGUGUUUUCCCUCUAUUUUCAACCAAAUCCUAGAGCCAGCUGAGACUGCUGAGUAAUCUGAAGGCGAGAGCAAGGAUAUACCAGCGAGGUCAGCCCCUCUAGAUGGAAUUCUCGGGUGCCAA	0.375
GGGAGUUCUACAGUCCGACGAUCAUCACUAGUCCUUACAGAACAGGAGCCAGAACUCUGGCAGACAUCAAAGCAAAAGCCCAGUUGGUCAAAGCACAAAAGGCAGCAGCCGCAGCAGCUGCUGCAGCUGCUGCUGGAAUUCUCGGGUGCCAA	0.257

Excerpt of the above (study 1):
Variant	relative binding score [%]
L166V	-0.604
E129W	54.8
R123S	83.4
K58E	47.8
P50M	-17.7
